Measured values collected from several papers.
Numbered parts are unrelated; each lists some results of a single study.

Sample 1
Target: TAR DNA-binding protein 43, full length, His tag (TARDBP, Homo sapiens, UniProt Q13148, residues 1-414)
Method: RNA Bind-n-Seq
Molecule type: RNA
Medium: in vitro
Concentration: 20 nM
Notes: 6-mer, flanks averaged, single round
Together with: 150 mM KCl
Relative to: input library
Reading: higher = stronger binding
Endpoint: 6-mer enrichment (R)
GCGCGC: 1.49
UCAAGA: 0.651
UGGGGG: 7.96
CAGGUG: 1.51
AAGUCU: 0.578
CUCCUU: 0.597
ACUCUA: 0.575
GUGCAA: 0.938
UCUCCU: 0.575
AGCCUG: 0.803
AGAGCU: 0.79
GACUGA: 0.929
AGAUAG: 0.875
AGGGCU: 1.93
GAGGUA: 1.49
GCCUUU: 0.683
CUUGAU: 0.633
GCACGC: 0.964
CAAACC: 0.587
AUCUAA: 0.57
AAUUGA: 0.659

Sample 2
Target: Sox, HMG box (Pigoraptor chileana)
Method: Spec-seq
Molecule type: double-stranded DNA, one strand shown
Medium: in vitro
Concentration: not given
Notes: whole probe, mean of replicates
Relative to: not given
Reading: lower = stronger binding
Endpoint: relative binding energy
Shared flanks, not repeated: GAGTCGTCTCGTCAGCAC … CCGTAGAGCACTCAGGTC
Construct (chain): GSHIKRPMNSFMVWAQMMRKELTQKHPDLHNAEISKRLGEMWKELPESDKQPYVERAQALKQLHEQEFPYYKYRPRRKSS
AAACGTT: -1.41 ln ratio
GGGTGTT: 0.963 ln ratio
CATTGTA: -2.54 ln ratio
AGCGGTT: 0.125 ln ratio
CATCTAA: 0.559 ln ratio
CATTGCC: 0.257 ln ratio
CATGTAC: 0.461 ln ratio
CATTATC: -1.76 ln ratio
CTAAGTT: 0.673 ln ratio
CATTTTC: 0.394 ln ratio
TTGAGTT: 0.666 ln ratio
CATCTGC: 0.788 ln ratio
CATAGGC: -0.37 ln ratio
ACACGTT: 0.435 ln ratio
CTGGGTT: 1.3 ln ratio
CATAAGC: -0.0225 ln ratio
CATCTTG: 0.323 ln ratio
CATTGAC: -0.42 ln ratio
CATGTAG: 0.512 ln ratio
GTCGGTT: 1.07 ln ratio
CATCTAG: 0.429 ln ratio

Sample 3
Target: Histone acetyltransferase KAT6A, winged helix 2, GST fusion (KAT6A, Homo sapiens, UniProt Q92794, residues 85-181)
Method: protein binding microarray
Molecule type: double-stranded DNA, one strand shown
Medium: in vitro
Concentration: not given
Notes: 8-mer, flanks averaged, mean of 2 arrays, mostly near background
Relative to: not given
Reading: higher = stronger binding
Endpoint: E-score
Construct (chain): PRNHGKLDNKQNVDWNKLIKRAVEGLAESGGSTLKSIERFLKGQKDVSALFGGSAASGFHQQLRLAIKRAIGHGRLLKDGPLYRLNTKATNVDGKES
CTGTCAGC: 0.0673
GCTTACTA: 0.0841
ATATTCTC: 0.00596
CGGTTAAA: 0.155
TAATCCGA: -0.0373
CGAACTGC: 0.0602
GAGCTCCC: -0.0435
TAACCTCA: -0.111
CGCCCCCG: 0.249
AACGGGGT: -0.0862
CACGAGGA: -0.0249
ACAAGAGT: -0.0994
CTTGACGC: -0.0258
TGGTAAAA: 0.155
CGACGGAG: -0.00485
GGATGACC: -0.0654
GGATGAGA: -0.133
AAAGAAAA: 0.0199
ATACAACC: -0.132
CTCTCCAC: -0.204
CGATGGAG: -0.0222
AAAATCCC: -0.0613
ACATAGAT: 0.0377
CCACAATC: 0.0723
ACGAACAG: 0.0953

Sample 4
Target: Interferon regulatory factor 5, full length, phosphomimetic (IRF5, Homo sapiens, UniProt Q13568-2, residues 1-514, S451D/S453D/S456D/S462D)
Method: protein-binding microarray
Molecule type: double-stranded DNA, one strand shown
Medium: in vitro
Concentration: 940 nM top
Notes: 60-bp whole probe
Together with: salmon DNA 0.4 mg/ml
Relative to: random background probes
Reading: higher = stronger binding
Endpoint: fitted relative affinity
Shared flanks, not repeated: GCCTAGCAC … GTCTTGATTCGCTTGACGCTGCTG
TTAGGACTGGGGACTCGGTTAGTGCTA: -0.318 z-score
TTAAAACTGAGTTTCGATTAGTGCTAG: 8.43 z-score
TTAGGTCTTCTTATCCTTTAGTGCTAG: 0.744 z-score
TTAGGTTTCGACTTGCGGTTAGTGCTA: 8.92 z-score
TTAGAACTGTGTCTCGATTAGTGCTAG: 1.08 z-score
TCATTTTTTTTTTTCTGACTGTGCTAG: 1.26 z-score
GGGTCACTCAATCTCAACAGGTGCTAG: 0.162 z-score
TCAATTATAACACTCTTACTGTGCTAG: 0.442 z-score
TCAACTTTCCAATTGTCACTGTGCTAG: 0.62 z-score
GACGGTCTCCTACGGCTGACGTGCTAG: -0.522 z-score
GTAAAATTATTCTGTATATTGTGCTAG: 0.262 z-score
TTCGGTCTCCTTATCCTTTAGTGCTAG: 1.1 z-score
AACGATATCGGGACTGGAGACGTGCTA: -0.181 z-score
CATTCTCTGCTTCTGTATGGGTGCTAG: 2.66 z-score
CTTGGGCTCTTCTCTGAAGACGTGCTA: -0.5 z-score
GACGCTATCCTTCTCCTGACGTGCTAG: 0.342 z-score
GACGGTCTCCTTCTGCTGACGTGCTAG: 0.208 z-score
TTAAATCTCAGTATCGATTAGTGCTAG: 5.3 z-score
GACGGTTTCGGTTCAGGGACGTGCTAG: 13.2 z-score
TTAGGACTGGGACTGGGTCAGTGCTAG: -0.906 z-score
TACATTTTCCAAATGCCCCTGTGCTAG: 0.388 z-score
ATATGTGTATATATAATATAGTGCTAG: 0.0238 z-score
TCAACTATTGCTTCCTCACTGTGCTAG: 0.561 z-score
GGGCTTTCCCAGCCTGGGGCTGTGCTA: -0.8 z-score
TTAGGACTGCTCATCCTTTAGTGCTAG: -0.0989 z-score

Sample 5
Target: RNA binding protein fox-1 homolog 2, RRM domain, GST-SBP tag (RBFOX2, Homo sapiens, UniProt O43251-10, residues 100-194)
Method: RNA Bind-n-Seq
Molecule type: RNA
Medium: in vitro
Concentration: 365 nM
Notes: natural RNA segment, single round, ends assumed
Relative to: no-protein control
Reading: higher = stronger binding
Endpoint: RBNS enrichment (R)
Shared flanks, not repeated: GGGAGUUCUACAGUCCGACGAUC … UGGAAUUCUCGGGUGCCAA
Target sequence (chain): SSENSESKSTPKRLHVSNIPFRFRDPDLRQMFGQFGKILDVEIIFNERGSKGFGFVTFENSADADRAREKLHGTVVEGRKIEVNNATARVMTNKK
GCUGCUCUUAGGUUUGUGUGUGUUUCUCUCCUGGCCAUCCACCCCGGCUGUGGGUCCACCCCAGCCGAGGGACUCCUGGCCUGCAUUGCGGGAUUGUCAGUGGCAUUUAG: 1.18
ACAUGGAUAGUUGUGGCCACCUGCUGACUAUUUGUGGUUUAAAAUAAAAGGUUUACUUGUCUGCAGAUACCUGACUCUUAGUAUCUUUACUGCAUUUUGGGAGUGUUUCA: 0.892
GGCAGGGUGGAUGCCACAGGCCCCUCUGGCUCCCAGGUGCUGCUUCUCCACAGGUGCGGCCUGGCCCGGCCUCCUAAAGGCCACACCCUCCCCACGCACUUCCCAGGCCA: 0.346
GAGUAGAGUAGCUUUUUUAUUCUUAGAUUAUAGUGAUAUUCUGUAGUGCUUCAAAUACUUAGAAUUCUAAUAUGAGAGAUAGUUUAAUAUUCUGGAAUAGAGAGUAUUUU: 0.558
GUCCAGAUGUUUGCAGGUGAAUUCCUCUGCUUGACAUCCUCCCUGUCACUUUGGACCCUAUGGGAGUGGGCAUCUCCACGCACCUGUGUAUGUGAAAGUCAUUUUACAUU: 0.529
CCAGUCGGACAGACGUCCCGCCACCCACCACCCCUCACAGGACGUCCGCUCAGCACACGCCUUGUUACGAGCAAGUGCCGGCUGGACCCAAGCCCUGCAUCCCCACAUGC: 0.393
CCAGUGUUUACAGCCUUGCUUUCCUCCCACCGACCCUGGCCCCAGGCUGCCCCGGGCCUGGCGGGCCACCCCUCUCUAUGCAAACACGUAAAAGCCAUGAAUGCUGGAAU: 0.866
GCUGCCCAAGAAAGCAUUACCCGCCCUCGGGGGGUCGGGCUGUGGGGGUCCCGGCACCUGGCGUGAGUUUCAUGUAUGAAAACAUAAAAUUGAAAAAAAAAAAAAAACCU: 0.666
UGCUAUGACUUUGAAAUUCACAGAAAGAAAUAACAGUUUAGAUUAGGUCUUCAGGUAUUCAGGAUAGAGAUAAUCUCCUGAAAAACCUGAAUUUCAGAGAUUCUUAGACU: 0.339
UUGAACUCGAAGACAACUUAAAGUUUAGGGAAAGGAGAAUAUUUUUGGCAGAACAUCCGUCAGUACCUCAUGAAGGCUGGCUGCCUUUGUCUUUGAGAUAGACAUUGGAG: 0.432
UUGAAAUUUAACCCUGCUCCAUAUUCUAACCUGUUAUGCAGGUACACUGUUAUCUUGCCCUGUGUCUCAAUCCUGGUUGUCUAAGUUGGGACACCUGAGUCUCUUCCUCU: 0.819
GGAAUGAGACUGCUUUUAAAGCAACACAUCAGAUCUUCUGCGUCUAAAAUGUAGAGUUUUUUUGAUUGAGUAAUUAUACUUACUACUUAAUAAAUACUUAUUAAAAUGCU: 0.483
